# Measured values collected from several papers.
# “And” joins repeats or separate records; there may be more than shown. Numbers after ± are the reported error. Ends that are not written are not given here.
Substance,assay,system,setting,how to read,endpoint,value
COc1ccc2c(c1)c(CC(=O)O)c(C)n2C(=O)c1ccc(Cl)cc1,"multiplex bead immunoassay, item: IFN","CD-1 mice, serum","ip, 20 mg/kg, three-injection regimen, together with: LPS 3 mg/kg",,cytokine level,0.9 ± 0.9 pg/mL
Cn1cc(-c2nc(N[C@@H]3CCCC[C@@H]3N)c(F)c3c2C(=O)NC3)cn1,,relapsed or refractory AML patients,dose not given,,complete response rate,15%
NS(=O)(=O)c1ccc(-n2nc(C(F)(F)F)cc2-c2ccc(F)cc2F)cc1,item: lameness score,"Beagle dog, urate crystal arthritis, plasma",,,minimum effective concentration,536 ng/mL
YEGKK,"neovascularization, [3H]thymidine labelling","peptide, BALB/c mouse female, sponge implant granulation tissue","100 µM, day 10",,labelled endothelial cells,10.2%
C[C@H]1C[C@H]2CSC(N)=N[C@@]2(c2nc(NC(=O)c3ccc(OC(F)F)cn3)cs2)CO1,item: CSF Aβx-38,healthy adults,"50 mg once daily, 14 days, day 15",relative to: placebo-adjusted baseline,change from baseline,-59.8%
CS/C(S)=N/CCCC[S+](C)[O-] (racemic),"RT-PCR, item: Gad2","rat, liver","oral gavage, 200 mg/kg, 96 h, dosed for four days",relative to: vehicle,mRNA fold change,3.54
CCCOc1ccc(S(=O)(=O)NCCC2CCCN2C)cc1-c1nc2c(CCC)nn(C)c2c(=O)[nH]1 (stereo not drawn),ramp cycle exercise test,human adolescents after Fontan palliation,"oral, 87.5 mg twice daily, day 5",,VO2 at anaerobic threshold,16.5 ± 5.2 mL/min/kg
PACAP,"qRT-PCR, GAPDH-normalised, item: RAGE","APP V717I transgenic mouse, 6 months old, brain","intranasal, dose not given, 3 months",relative to: vehicle-treated mice,mRNA level,50.7 ± 7.8%
CC(C)C[C@H](NC(=O)[C@H](CO)NC(=O)[C@H](CCCNC(=N)N)NC(=O)[C@H](CC(=O)O)NC(=O)[C@H](CCC(=O)O)NC(=O)[C@H](C)NC(=O)[C@@H]1CCCN1C(=O)[C@H](C)NC(=O)[C@H](CCC(=O)O)NC(=O)[C@@H]1CCCN1C(=O)[C@@H]1CCCN1)C(N)=O,item: tyrosine hydroxylase,"rat F344, unilateral 6-OHDA lesion, lesioned SNpc rostral, -5.24 mm from bregma","intranasal, 300 µg daily",,TH+ neuron number,25 ± 5
C[C@]12CC[C@@H]3c4ccc(O)cc4CC[C@H]3[C@@H]1CC[C@@H]2O,qRT-PCR,"men with localised prostate cancer, prostate epithelium",dose not given,relative to: untreated men,TMPRSS2 mRNA level,decreased
"CYILNCPIG ([Leu4,Ile8]oxytocin; ends and bridges not checked; cysteine pairing not given here; sequence looked up)",antagonist,"peptide, Bufo marinus urinary bladder",together with: oxytocin,,pA2,5.94
SIYNFEKL,"flow cytometry, item: CD44hi CD8+ T cells","peptide, OT-I CD8+ T cells, mouse","1 µg/mL loading, primed 5 days, TGF-β1 from day 2 onward, together with: 20 ng/mL TGF-β1",,triple cytokine producers,36.4%
O=C(O)Cc1ccccc1Nc1c(Cl)cccc1Cl,,rat carrageenan paw oedema,"10 mg/kg, 2 h",,paw volume increase,0.21 ± 0.02 mm
COc1cc(F)c([C@@H]2CNC(=O)[C@H]2NC(=O)Nc2ccccc2)c(F)c1,"zymosan phagocytosis, stimulator","wild-type peritoneal macrophages, mouse",BioGel-elicited,,EC50,~0.008 nM
CC(=O)O[C@H]1C(=O)[C@@]2(C)[C@H]([C@H](OC(=O)c3ccccc3)[C@]3(O)C[C@H](OC(=O)[C@H](O)[C@@H](NC(=O)c4ccccc4)c4ccccc4)C(C)=C1C3(C)C)[C@]1(OC(C)=O)CO[C@@H]1C[C@@H]2O,,"rat, DMBA-induced mammary tumour, mammary tumour","2 mg/kg per week, day 42",relative to: before treatment,tumour size decrease,81%
Nc1ccc([N+](=O)[O-])cc1-c1nc2ccccc2n(Cc2ccccc2)c1=O,short-circuit current increase,"mouse, freshly isolated colon",Cl- secretion,,EC50,~300 nM
COc1cnc(C(=O)Nc2ccc(F)c([C@]34CN(c5ncc(F)cn5)C[C@H]3CSC(N)=N4)c2)cn1,item: CSF Aβ1–40 and Aβ1–42,healthy humans,1.6 mg single dose,,time to nadir,~8 h
CC(=O)Oc1ccccc1C(=O)O,,"rat, FeCl3 carotid thrombosis","oral, 65 µmol/kg, 1 h before injury, 25% ferric chloride",relative to: vehicle,thrombus weight decrease,65%
CN(C)C(=O)N[C@H]1CC[C@H](CCN2CCN(c3cccc(Cl)c3Cl)CC2)CC1,open field,"Sprague-Dawley rat, ouabain mania model","intraperitoneal, 1.0 mg/kg, 1 h pretreatment, 30 min observation, together with: ouabain i.c.v.",,locomotor activity,19.5 ± 8.78 squares crossed
cilengitide,,"Sprague-Dawley rats, TNBS colitis, colonic smooth muscle cells","ip, 18 mg/kg/day, 42 d",,total TGF-β1 level,16.4 ± 0.7 ng/mg protein
cotadutide,item: CGM blood glucose,"human, type 2 diabetes, CKD","subcutaneous, 50 to 300 µg once daily, day 32",relative to: baseline,change in average glucose,-41.4 mg/dL
Cc1c(CN2CCN(C(=O)[C@H](C)O)CC2)sc2c(N3CCOCC3)nc(-c3cnc(N)nc3)nc12,item: pAkt,"786-O xenograft mice, tumour","oral, 0.3, 3, 10 mg/kg, PK-PD model, plasma concentration",,IC50,0.403 µg/mL
Cc1c(OCC(F)(F)F)ccnc1C[S@@+]([O-])c1nc2ccccc2[nH]1,,healthy humans,"oral, 60 mg, 0 to 24 h postdose, pH 4 threshold, single dose",,time with intragastric pH above threshold,58%
CC[C@H](C)[C@H](NC(=O)[C@H](CCC(N)=O)NC(=O)[C@H](Cc1c[nH]cn1)NC(=O)[C@H](C)NC(=O)[C@H](CC(C)C)NC(=O)[C@H](CCCCN)NC(=O)[C@H](CCC(N)=O)NC(=O)[C@@H](NC(=O)[C@@H](NC(=O)[C@@H]1CSSC[C@H](NC(=O)CNC(=O)[C@H](Cc2ccccc2)NC(=O)[C@H](CO)NC(=O)[C@H](CCCNC(=N)N)NC(=O)[C@H](CC(C)C)NC(=O)CNC(=O)[C@H](CCC(N)=O)NC(=O)[C@H](Cc2ccccc2)NC(=O)[C@H](CC(N)=O)NC(=O)[C@H](CC(N)=O)NC(=O)[C@H](CCSC)NC(=O)[C@H](CO)NC(=O)[C@H](CCC(N)=O)NC(=O)[C@H](CCCNC(=N)N)NC(=O)[C@@H](N)Cc2ccc(O)cc2)C(=O)N[C@@H](CCCNC(=N)N)C(=O)N[C@@H](Cc2ccccc2)C(=O)NCC(=O)N[C@@H]([C@@H](C)O)C(=O)N1)[C@@H](C)O)C(C)C)C(=O)N[C@@H](Cc1ccc(O)cc1)C(=O)N[C@@H](CCC(N)=O)C(=O)N[C@@H](Cc1ccccc1)C(=O)N[C@H](C(=O)N[C@@H](CC(=O)O)C(=O)N[C@@H](CCCCN)C(=O)N[C@@H](CC(=O)O)C(=O)N[C@@H](CCCCN)C(=O)N[C@@H](CC(=O)O)C(=O)N[C@@H](CC(N)=O)C(=O)N[C@H](C(=O)N[C@@H](C)C(=O)N1CCC[C@H]1C(=O)N[C@@H](CCCNC(=N)N)C(=O)N[C@@H](CO)C(=O)N[C@@H](CCCCN)C(=O)N[C@H](C(=O)N[C@@H](CO)C(=O)N1CCC[C@H]1C(=O)N[C@@H](CCC(N)=O)C(=O)NCC(=O)N[C@@H](Cc1ccc(O)cc1)C(N)=O)[C@@H](C)CC)C(C)C)[C@@H](C)O,,"patients, biologic-resistant Crohn's disease","intravenous infusion, 15 ng/kg/min, 6 weeks, unit not given, together with: biologic",relative to: baseline,change in CDAI,-65 ± 76
N[C@@H](CC(=O)N1CCn2c(nnc2C(F)(F)F)C1)Cc1cc(F)c(F)cc1F,oral glucose tolerance test,"C57BL/6J mice, high-fat diet-induced obese, plasma","oral, 1 mg/kg once daily, week 2 of treatment, AUC 0 to 120 min",relative to: vehicle,glucose AUC reduction,29%
Cc1c(-c2nnc(SC/C(=N/O)c3ccc(Cl)cc3)n2-c2ccccc2)nnn1-c1ccc(S(N)(=O)=O)cc1,Griess,phosphate buffer-methanol,"100 µM, 1 h, pH 7.4, 37 °C, together with: N-acetylcysteine 0.5 mM",relative to: theoretical maximum release,NO released,0.73%
Polymyxin B,,human whole blood,"125 ng/mL, 4 h, 37 °C, together with: E. coli LPS 0.5 ng/mL",relative to: LPS without compound,IL-8 release,53.6 ± 14.5%
N[C@@H](CC(=O)N1CCn2c(nnc2C(F)(F)F)C1)Cc1cc(F)c(F)cc1F,,type 2 diabetes patients on metformin,"oral, 100 mg once daily, 28 weeks, sitting, mean of 2 readings, together with: exenatide 2.0 mg weekly subcutaneous",,heart rate,74.8 beats/min
CCC1=C(C)CN(C(=O)NCCc2ccc(S(=O)(=O)NC(=O)N[C@H]3CC[C@H](C)CC3)cc2)C1=O,oral glucose tolerance test,"healthy male humans, serum","oral, steady state, together with: 75 g glucose",,maximum serum glucose,134 ± 26.9 mg/dL
Oc1ncnc2[nH]ncc12,,"male gout patients, serum","300 mg, 24 h, steady state, together with: verinurad 10 mg alone or combined",relative to: baseline,change in serum uric acid,-36%
CCc1cnn2c(NCc3ccc[n+]([O-])c3)cc(N3CCCC[C@H]3CCO)nc12,"lymphocyte proliferation, BrdU incorporation","human, whole blood ex vivo","intravenous infusion, 8 h infusion, effect from 1 h, sustained, together with: PHA",,minimum pharmacodynamic dose,≥ 14.8 mg/m2
gamma-MSH,,"Sprague Dawley rat, urethane-anaesthetised","intravenous, 15 nmol, response decreased by 90%",,MAP response resolution time,4.5 ± 0.6 min
SIIVFEKL,"flow cytometry, item: CD44hi CD8+ T cells","peptide, OT-I CD8+ T cells, mouse","dose not given, primed 5 days, restimulated 100 ng/mL OVA257, together with: no TGF-β1",,TNF-α only cells,0.2%
Cn1cnc(C[C@H](NC(=O)[C@@H]2CCC(=O)C2)C(=O)N2CCC[C@H]2C(N)=O)c1,,Swiss albino mice,"intravenous, 10 µmol/kg, together with: pentobarbital",relative to: control,decrease in sleeping time,68.3% and 68.6%
COc1ccc(-n2c(SC/C(=N/O)c3ccccc3)nnc2-c2nnn(-c3ccc(S(N)(=O)=O)cc3)c2C)cc1,Griess,phosphate buffer-methanol,"100 µM, 1 h, pH 7.4, 37 °C, together with: N-acetylcysteine 0.5 mM",relative to: theoretical maximum release,NO released,2.14%
Cc1ccc(NC(=O)c2ccc(CN3CCN(C)CC3)cc2)cc1Nc1nccc(-c2cncc(-c3oncc3C)c2)n1,,mild-to-moderate Parkinson's disease patients,"oral, 100 mg once daily, day 7, on anti-Parkinson medication",direction not given,PGI-S score,2.4 ± 0.5
